Measured values of several laboratories.
A part holds a random share of what one study measured.
Chain of UniProt P54760 (whole entry, looked up): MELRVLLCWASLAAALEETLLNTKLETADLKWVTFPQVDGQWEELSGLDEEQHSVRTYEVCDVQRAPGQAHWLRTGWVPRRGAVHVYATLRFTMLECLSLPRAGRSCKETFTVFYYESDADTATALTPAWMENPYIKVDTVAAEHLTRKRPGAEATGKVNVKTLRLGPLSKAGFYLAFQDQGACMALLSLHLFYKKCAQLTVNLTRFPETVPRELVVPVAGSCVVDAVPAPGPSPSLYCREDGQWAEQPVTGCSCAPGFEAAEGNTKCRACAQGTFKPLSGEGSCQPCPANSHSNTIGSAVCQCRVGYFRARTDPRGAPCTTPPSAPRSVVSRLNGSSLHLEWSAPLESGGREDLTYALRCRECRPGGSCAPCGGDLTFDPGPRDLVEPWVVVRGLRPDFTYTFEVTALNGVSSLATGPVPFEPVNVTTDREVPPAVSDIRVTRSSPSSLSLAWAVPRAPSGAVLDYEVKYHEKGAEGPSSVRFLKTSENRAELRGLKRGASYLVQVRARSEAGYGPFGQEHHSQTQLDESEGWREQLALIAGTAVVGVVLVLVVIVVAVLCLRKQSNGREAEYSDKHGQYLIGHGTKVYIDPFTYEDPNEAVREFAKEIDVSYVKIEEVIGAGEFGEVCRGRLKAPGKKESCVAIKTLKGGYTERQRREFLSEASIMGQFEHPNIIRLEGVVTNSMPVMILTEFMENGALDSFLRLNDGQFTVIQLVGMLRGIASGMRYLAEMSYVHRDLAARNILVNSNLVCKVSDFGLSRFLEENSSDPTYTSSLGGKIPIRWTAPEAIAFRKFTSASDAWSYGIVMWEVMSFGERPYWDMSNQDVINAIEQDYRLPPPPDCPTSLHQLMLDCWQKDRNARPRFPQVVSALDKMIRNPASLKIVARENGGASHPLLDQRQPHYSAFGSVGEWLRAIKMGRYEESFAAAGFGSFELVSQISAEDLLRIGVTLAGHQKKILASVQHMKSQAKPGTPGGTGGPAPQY
Chain of UniProt P10721 (whole entry, unmodified, looked up): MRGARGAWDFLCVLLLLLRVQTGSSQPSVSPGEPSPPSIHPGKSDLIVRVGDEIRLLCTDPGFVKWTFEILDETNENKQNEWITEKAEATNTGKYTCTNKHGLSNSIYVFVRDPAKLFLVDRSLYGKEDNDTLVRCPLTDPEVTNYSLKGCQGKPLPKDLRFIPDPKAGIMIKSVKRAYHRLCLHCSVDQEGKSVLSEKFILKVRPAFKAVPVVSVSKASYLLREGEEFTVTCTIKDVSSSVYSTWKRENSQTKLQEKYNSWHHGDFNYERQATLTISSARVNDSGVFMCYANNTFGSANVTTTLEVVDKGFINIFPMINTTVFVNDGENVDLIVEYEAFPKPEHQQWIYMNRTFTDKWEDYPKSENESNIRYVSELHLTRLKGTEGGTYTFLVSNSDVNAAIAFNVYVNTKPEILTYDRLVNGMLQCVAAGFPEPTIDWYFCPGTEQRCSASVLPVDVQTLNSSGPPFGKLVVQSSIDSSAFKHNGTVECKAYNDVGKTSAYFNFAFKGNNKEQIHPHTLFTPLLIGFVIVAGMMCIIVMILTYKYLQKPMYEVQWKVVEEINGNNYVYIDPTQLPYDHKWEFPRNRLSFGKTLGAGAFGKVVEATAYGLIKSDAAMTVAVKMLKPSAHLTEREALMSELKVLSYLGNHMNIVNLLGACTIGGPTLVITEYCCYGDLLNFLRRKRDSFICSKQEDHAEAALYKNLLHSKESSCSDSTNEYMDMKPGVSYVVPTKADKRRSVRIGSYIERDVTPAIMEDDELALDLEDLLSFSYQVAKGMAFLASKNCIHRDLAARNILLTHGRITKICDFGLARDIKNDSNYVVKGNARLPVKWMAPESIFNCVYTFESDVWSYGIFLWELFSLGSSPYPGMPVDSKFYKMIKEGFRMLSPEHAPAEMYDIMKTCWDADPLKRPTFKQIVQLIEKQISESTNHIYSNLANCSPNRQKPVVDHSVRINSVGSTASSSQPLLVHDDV
Chain of UniProt P35626 (whole entry, looked up): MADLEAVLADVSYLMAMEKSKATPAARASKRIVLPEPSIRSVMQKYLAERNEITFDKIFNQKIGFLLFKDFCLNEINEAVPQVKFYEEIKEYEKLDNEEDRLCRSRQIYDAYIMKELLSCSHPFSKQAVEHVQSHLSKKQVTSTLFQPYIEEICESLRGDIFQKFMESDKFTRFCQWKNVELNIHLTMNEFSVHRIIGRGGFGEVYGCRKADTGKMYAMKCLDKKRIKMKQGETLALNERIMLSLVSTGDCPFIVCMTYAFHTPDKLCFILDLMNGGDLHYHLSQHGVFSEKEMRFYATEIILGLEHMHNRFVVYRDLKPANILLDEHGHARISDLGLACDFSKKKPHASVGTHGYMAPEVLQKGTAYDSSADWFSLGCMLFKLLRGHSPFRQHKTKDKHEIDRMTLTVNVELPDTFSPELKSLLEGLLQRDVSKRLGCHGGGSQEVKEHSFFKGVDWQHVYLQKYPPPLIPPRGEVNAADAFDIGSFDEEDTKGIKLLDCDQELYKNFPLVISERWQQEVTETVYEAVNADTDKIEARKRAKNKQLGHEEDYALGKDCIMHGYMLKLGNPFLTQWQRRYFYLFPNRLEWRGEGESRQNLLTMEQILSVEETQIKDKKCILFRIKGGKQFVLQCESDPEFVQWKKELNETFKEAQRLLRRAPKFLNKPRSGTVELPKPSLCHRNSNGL
Chain of UniProt O75716 (whole entry, looked up): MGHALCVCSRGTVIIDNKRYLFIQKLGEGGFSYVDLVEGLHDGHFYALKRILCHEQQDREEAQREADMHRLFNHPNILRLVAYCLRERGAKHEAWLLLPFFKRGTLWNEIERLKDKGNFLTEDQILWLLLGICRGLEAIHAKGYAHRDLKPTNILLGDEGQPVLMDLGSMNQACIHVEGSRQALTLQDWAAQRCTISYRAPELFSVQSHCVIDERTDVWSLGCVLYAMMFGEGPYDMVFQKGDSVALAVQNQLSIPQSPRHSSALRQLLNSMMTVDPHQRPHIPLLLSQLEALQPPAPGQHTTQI
Chain of UniProt Q13554 (whole entry, looked up): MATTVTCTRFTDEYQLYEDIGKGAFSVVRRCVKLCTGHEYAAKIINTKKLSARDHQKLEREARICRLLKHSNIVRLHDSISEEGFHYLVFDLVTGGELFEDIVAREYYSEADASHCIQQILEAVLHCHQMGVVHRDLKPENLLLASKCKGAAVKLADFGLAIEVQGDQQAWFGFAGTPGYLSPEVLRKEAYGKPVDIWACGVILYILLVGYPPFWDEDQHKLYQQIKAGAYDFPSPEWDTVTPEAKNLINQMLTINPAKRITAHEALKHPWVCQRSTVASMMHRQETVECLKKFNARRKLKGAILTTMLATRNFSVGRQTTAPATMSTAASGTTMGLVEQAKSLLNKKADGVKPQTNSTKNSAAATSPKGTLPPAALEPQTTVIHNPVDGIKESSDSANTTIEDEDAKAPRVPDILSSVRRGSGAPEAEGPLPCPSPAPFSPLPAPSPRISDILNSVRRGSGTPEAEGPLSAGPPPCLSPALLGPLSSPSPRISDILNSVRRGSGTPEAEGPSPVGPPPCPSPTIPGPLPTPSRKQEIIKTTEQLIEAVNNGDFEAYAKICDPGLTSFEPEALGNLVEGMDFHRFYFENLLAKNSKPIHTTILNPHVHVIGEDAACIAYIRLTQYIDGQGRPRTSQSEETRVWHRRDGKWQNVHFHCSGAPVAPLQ
Chain of UniProt O14757 (whole entry, looked up): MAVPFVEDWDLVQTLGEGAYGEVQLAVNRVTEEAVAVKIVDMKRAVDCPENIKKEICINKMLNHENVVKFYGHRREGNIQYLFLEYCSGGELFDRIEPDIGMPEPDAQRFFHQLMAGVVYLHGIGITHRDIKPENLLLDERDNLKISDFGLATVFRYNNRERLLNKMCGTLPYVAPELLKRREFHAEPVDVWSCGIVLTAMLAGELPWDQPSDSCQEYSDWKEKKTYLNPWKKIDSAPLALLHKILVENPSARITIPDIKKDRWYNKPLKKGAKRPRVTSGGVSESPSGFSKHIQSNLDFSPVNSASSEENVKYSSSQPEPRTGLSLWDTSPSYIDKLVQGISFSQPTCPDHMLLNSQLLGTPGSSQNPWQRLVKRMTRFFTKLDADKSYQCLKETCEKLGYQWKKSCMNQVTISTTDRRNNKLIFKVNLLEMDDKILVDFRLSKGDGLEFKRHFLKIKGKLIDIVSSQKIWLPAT
Chain of UniProt Q9H3Y6 (whole entry, looked up): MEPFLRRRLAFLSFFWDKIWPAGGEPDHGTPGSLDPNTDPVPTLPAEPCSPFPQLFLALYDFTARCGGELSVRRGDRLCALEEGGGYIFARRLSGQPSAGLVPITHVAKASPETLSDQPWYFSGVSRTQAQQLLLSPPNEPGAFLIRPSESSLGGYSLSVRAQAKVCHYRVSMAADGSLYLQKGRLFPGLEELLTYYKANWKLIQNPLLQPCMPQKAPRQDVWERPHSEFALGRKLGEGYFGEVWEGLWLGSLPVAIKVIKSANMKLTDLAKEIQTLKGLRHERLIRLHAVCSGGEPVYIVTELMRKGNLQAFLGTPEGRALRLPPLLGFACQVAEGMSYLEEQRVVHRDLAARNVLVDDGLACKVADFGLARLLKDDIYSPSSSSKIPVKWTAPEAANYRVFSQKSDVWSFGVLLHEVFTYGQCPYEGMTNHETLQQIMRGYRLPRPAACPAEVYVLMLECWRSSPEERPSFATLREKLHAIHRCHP
Chain of UniProt P06493 (whole entry, looked up): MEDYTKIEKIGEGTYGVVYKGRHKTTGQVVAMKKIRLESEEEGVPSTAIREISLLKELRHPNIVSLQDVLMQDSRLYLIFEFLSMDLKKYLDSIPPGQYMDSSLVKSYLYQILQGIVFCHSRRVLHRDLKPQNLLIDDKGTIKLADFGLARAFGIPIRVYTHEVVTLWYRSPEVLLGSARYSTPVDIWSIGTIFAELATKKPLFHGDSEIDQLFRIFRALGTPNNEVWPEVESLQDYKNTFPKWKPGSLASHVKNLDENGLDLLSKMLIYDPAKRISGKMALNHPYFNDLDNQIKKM

Set 1 — observed: enzyme activity; mode: inhibitor; tested at: 0.5 µM; baseline: control; quantity: remaining activity
Compound: CC(C)c1nn(-c2c(Cl)cccc2Cl)c2nc(Cc3ccc(OCCO)cc3)[nH]c(=O)c12
Serine/threonine-protein kinase WNK3 (WNK3, Homo sapiens, UniProt Q9BYP7): 96.7%
Ribosomal protein S6 kinase alpha-6 (RPS6KA6, Homo sapiens, UniProt Q9UK32): 84.8%
Mitogen-activated protein kinase kinase kinase kinase 4 (MAP4K4, Homo sapiens, UniProt O95819): 84.5%
MAP kinase-activated protein kinase 3 (MAPKAPK3, Homo sapiens, UniProt Q16644): 89.2%
Testis-specific serine/threonine-protein kinase 2 (TSSK2, Homo sapiens, UniProt Q96PF2): 105%
Ephrin type-B receptor 4 (EPHB4, Homo sapiens, UniProt P54760): 90.7%
Dual specificity tyrosine-phosphorylation-regulated kinase 3 (DYRK3, Homo sapiens, UniProt O43781): 99%
Ephrin type-B receptor 1 (EPHB1, Homo sapiens, UniProt P54762): 91.3%
Serine/threonine-protein kinase 17A (STK17A, Homo sapiens, UniProt Q9UEE5): 98.3%
Cyclin-dependent kinase 4, with cyclin D3 (CDK4, Homo sapiens, UniProt P11802): 45.6%
Serine/threonine-protein kinase 16 (STK16, Homo sapiens, UniProt O75716): 83.8%
Homeodomain-interacting protein kinase 2 (HIPK2, Homo sapiens, UniProt Q9H2X6): 104%
Tyrosine-protein kinase Srms (SRMS, Homo sapiens, UniProt Q9H3Y6): 91.5%
3-phosphoinositide-dependent protein kinase 1 (PDPK1, Homo sapiens, UniProt O15530): 94.9%
Cyclin-dependent kinase 1, with cyclin B (CDK1, Homo sapiens, UniProt P06493): -1.2%
Calcium/calmodulin-dependent protein kinase type II subunit beta (CAMK2B, Homo sapiens, UniProt Q13554): 104%
Cyclin-dependent kinase 6, with cyclin D3 (CDK6, Homo sapiens, UniProt Q00534): 46.6%
Tyrosine-protein kinase receptor UFO (AXL, Homo sapiens, UniProt P30530): 98%
Tyrosine-protein kinase Blk (BLK, Homo sapiens, UniProt P51451): 98.8%
Phosphorylase b kinase gamma catalytic chain, skeletal muscle/heart isoform (PHKG1, Homo sapiens, UniProt Q16816): 87%
Ribosomal protein S6 kinase alpha-5 (RPS6KA5, Homo sapiens, UniProt O75582): 85.6%

Set 2 — Compound: c1ccc(N2CCN(Cc3nc4ccccc4[nH]3)CC2)nc1; technique: competition with immobilised ligand; tested at: 1 µM; quantity: remaining binding
Protein kinase C theta type (PRKCQ, Homo sapiens, UniProt Q04759); cell-free assay: 98%
Serine/threonine-protein kinase D1 (PRKD1, Homo sapiens, UniProt Q15139); binding: 95%
Dual serine/threonine and tyrosine protein kinase (DSTYK, Homo sapiens, UniProt Q6XUX3); binding: 100%
Serine/threonine-protein kinase tousled-like 2 (TLK2, Homo sapiens, UniProt Q86UE8); cell-free assay: 100%
Inhibitor of nuclear factor kappa-B kinase subunit epsilon (IKBKE, Homo sapiens, UniProt Q14164); binding: 100%
Serine/threonine-protein kinase RIO3 (RIOK3, Homo sapiens, UniProt O14730); binding: 100%
Dual specificity mitogen-activated protein kinase kinase 4 (MAP2K4, Homo sapiens, UniProt P45985); binding: 100%
Protein kinase C epsilon type (PRKCE, Homo sapiens, UniProt Q02156); cell-free assay: 100%
Cyclin-dependent kinase-like 5 (CDKL5, Homo sapiens, UniProt O76039); binding: 100%
Serine/threonine-protein kinase BRSK1 (BRSK1, Homo sapiens, UniProt Q8TDC3); binding: 91%
Tyrosine-protein kinase ABL1, non-phosphorylated (ABL1, Homo sapiens, UniProt P00519, H396P); binding: 87%
Serine/threonine-protein kinase 32A (STK32A, Homo sapiens, UniProt Q8WU08); binding: 100%
Calcium/calmodulin-dependent protein kinase type 1D (CAMK1D, Homo sapiens, UniProt Q8IU85); cell-free assay: 96%
G protein-coupled receptor kinase 3 (GRK3, Homo sapiens, UniProt P35626); binding: 67%
Serine/threonine-protein kinase Chk1 (CHEK1, Homo sapiens, UniProt O14757); binding: 100%
Cyclin-dependent kinase 3 (CDK3, Homo sapiens, UniProt Q00526); binding: 100%
Mast/stem cell growth factor receptor Kit (KIT, Homo sapiens, UniProt P10721, D816V); binding: 100%

Set 3 — medium: 1,9-decadiene/PBS; pH: 7.4; quantity: logD
CC(C)C[C@@H]1NC(=O)[C@H](CC(C)C)NC(=O)[C@@H](CC(C)C)NC(=O)[C@@H](C)NC(=O)[C@H](C)NC(=O)[C@H](Cc2cscn2)NC(=O)[C@H](CCC(=O)N2CCCC2)NC1=O: -2.95
CC(C)C[C@@H]1NC(=O)[C@H](CC(C)C)NC(=O)[C@@H](C(C)C)NC(=O)[C@H](C(C)C)NC(=O)[C@@H](Cc2cscn2)NC(=O)[C@H](Cc2cscn2)NC(=O)[C@H](CCC(=O)N2CCCC2)NC1=O: -2.28
CC(C)C[C@@H]1NC(=O)[C@H](CC(C)C)NC(=O)[C@@H](CC(C)C)NC(=O)[C@H](C)NC(=O)[C@H](C)NC(=O)[C@@H](CC(C)C)NC(=O)[C@H](C)NC1=O: -1.31
CC(C)C[C@@H]1NC(=O)[C@H](C)NC(=O)[C@@H](CC(C)C)NC(=O)[C@@H](CC(C)C)NC(=O)[C@H](C(C)C)NC(=O)[C@H](CC(C)C)NC(=O)[C@@H](CC(C)C)NC1=O: 1.85
CC(C)C[C@@H]1NC(=O)[C@H](C)NC(=O)[C@@H](CC(C)C)NC(=O)[C@H](C(C)C)NC(=O)[C@H](CC(C)C)NC(=O)[C@@H](CC(C)C)NC(=O)[C@H](CC(C)C)NC1=O: 1.05
CC(C)C[C@@H]1NC(=O)[C@H](C)NC(=O)[C@@H](CC(C)C)NC(=O)[C@@H](CC(C)C)NC(=O)[C@@H](CCC(=O)N2CCCC2)NC(=O)[C@H](CC(C)C)NC(=O)[C@@H](CC(C)C)NC1=O: -0.0939

Set 4 — cell line: mouse MPNST tumor cells; technique: high-content immunofluorescence imaging; refers to: nuclear SOX9; tested at: 10 µM; time: 12 h; setting: mean of 2 replicates; baseline: DMSO control; direction: higher = more nuclear SOX9; quantity: nuclear SOX9 intensity
Cc1ccc2c(c1CCC(=O)O)CC[C@@H](NS(=O)(=O)c1ccc(Cl)cc1)C2: 132 % of DMSO
C/C=C1\C(=O)C[C@H]2[C@@H]3CCC4=CC(=O)CC[C@]4(C)[C@H]3CC[C@]12C: 72.4 % of DMSO
COc1cc(C(C)=O)ccc1O: 97.6 % of DMSO
NC(CO)C(=O)NNCc1ccc(O)c(O)c1O (stereo not drawn): 90.8 % of DMSO
CC(CN(C)C)C(C)(O)Cc1ccc(Cl)cc1 (stereo not drawn): 109 % of DMSO
N#Cc1cnc2cnc(NCc3cccnc3)cc2c1Nc1ccc(F)c(Cl)c1: 83.2 % of DMSO
COc1ccc2nc3ccc(Cl)cc3c(SCCCN)c2c1: 97.8 % of DMSO

Repeated from above (set 1):
Ribosomal protein S6 kinase alpha-6 (RPS6KA6, Homo sapiens, UniProt Q9UK32): 84.8%
Mitogen-activated protein kinase kinase kinase kinase 4 (MAP4K4, Homo sapiens, UniProt O95819): 84.5%
MAP kinase-activated protein kinase 3 (MAPKAPK3, Homo sapiens, UniProt Q16644): 89.2%
Testis-specific serine/threonine-protein kinase 2 (TSSK2, Homo sapiens, UniProt Q96PF2): 105%
Ephrin type-B receptor 4 (EPHB4, Homo sapiens, UniProt P54760): 90.7%
